Measurements collected from several papers.
A part holds a random share of what one study measured. Changes are numbered by the printed parent chain.

Sample 1 — read-out: peptide-MHC binding; molecule type: peptide; concentration: concentration not given
Target: HLA class I histocompatibility antigen, A alpha chain, allele A*25:01 (Homo sapiens, UniProt P04439)
Molecule	binding
KLYLRPWWH	inactive
DPPEPLVRI	inactive
LNWFEIWIV	inactive
MPIAAAIGT	inactive
FLILPQAKK	inactive
KQLPPLAAW	inactive
MRNTIMASK	inactive
LYVAGVPEL	inactive
PVTPVIPRV	inactive

Sample 2 — target: CCNE1, cyclin fold, Cln2 fusion (human); technique: yeast growth competition, sequencing; medium: yeast; notes: strong parent motif; reference: not given; direction: higher = stronger binding
Starting sequence: viral docking peptide; TSVRRALFTGGSD; partner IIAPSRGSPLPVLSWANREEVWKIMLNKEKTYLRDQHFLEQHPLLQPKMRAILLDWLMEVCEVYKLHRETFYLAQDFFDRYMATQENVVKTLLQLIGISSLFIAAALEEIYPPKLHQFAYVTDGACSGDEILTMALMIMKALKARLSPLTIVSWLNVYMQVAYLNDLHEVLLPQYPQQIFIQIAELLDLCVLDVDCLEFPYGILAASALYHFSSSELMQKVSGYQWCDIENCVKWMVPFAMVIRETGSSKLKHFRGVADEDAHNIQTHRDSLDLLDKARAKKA
Change	normalised enrichment score
TSVRRAPFTGGSD [L7P]	-0.227
TAVRRALFTGGSD [S2A]	3.75
TLVRRALFTGGSD [S2L]	3.51
TSVRRALFHGGSD [T9H]	5.7
TSVRRALFTVGSD [G10V]	5.15
TSVRRALFTGDSD [G11D]	6.61
TSVRRALNTGGSD [F8N]	0.421
TSVRRALFTGSSD [G11S]	5.74
TSVRRALFTGGMD [S12M]	5.25
TSVRRGLFTGGSD [A6G]	1.29
TSVRRAFFTGGSD [L7F]	0.0758
TSVRRHLFTGGSD [A6H]	3.01
TSVDRALFTGGSD [R4D]	-0.0772
TSVRRALHTGGSD [F8H]	0.219
TSVRHALFTGGSD [R5H]	0.424
TSVRRALFRGGSD [T9R]	5.42
TEVRRALFTGGSD [S2E]	3.91
TSHRRALFTGGSD [V3H]	2.16
TSVRMALFTGGSD [R5M]	0.312
TYVRRALFTGGSD [S2Y]	4.37
TSVRRALFCGGSD [T9C]	5.08
TSVRRALFTGGKD [S12K]	4.99
TSVRRALFTYGSD [G10Y]	4.59
TSVRRAMFTGGSD [L7M]	0.313
TSVRRALFSGGSD [T9S]	5.2

Sample 3 — target: UBE2D4 UBC core domain (UniProt Q9Y2X8); technique: yeast two-hybrid; medium: yeast; notes: mostly zero background; reference: not given; direction: higher = stronger interaction
Sequence of UniProt Q9Y2X8 (whole entry, looked up): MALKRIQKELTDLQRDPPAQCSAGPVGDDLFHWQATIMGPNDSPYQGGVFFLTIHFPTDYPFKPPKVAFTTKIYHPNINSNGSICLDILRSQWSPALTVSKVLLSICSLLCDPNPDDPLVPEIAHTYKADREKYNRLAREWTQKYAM
B1: MYCBP2 RING domain (UniProt O75592); chain TSLKQDADDMCMICFTEALSAAPAIQLDCSHIFHLQCCRRVLENRWLGPRITFGFISCPICKNKINHIVLKD
B2: DEF8 RING domain (UniProt Q6ZN54); chain AGRLGCSLTEIHTLFAKHIKLDCERCQAKGFVCELCREGDVLFPFDSHTSVCADCSAVFHRDCYYDNSTTCPKCARLSLRK
Molecule	lacZ reporter activity
FVKTVEDKYKCEKCHLVLCSPKQTECGHRFCESCMAALLSSSSPKCTACQESIVKDKVF (TRAF3 RING domain (UniProt Q13114))	0
B1 (MYCBP2 RING domain)	0
YCEMGSTFQLCKICAENDKDVKIEPCGHLMCTSCLTAWQESDGQGCPFCRCEIKGTEPII (CBLB RING domain (UniProt Q13191))	0
PEELAVNNDDCAICWDSMQAARKLPCGHLFHNSCLRSWLEQDTSCPTCRMSLNIADNNR (AMFR RING domain (UniProt Q9UKV5))	9210
RYRQMEERITCPICIDSHIRLVFQCGHGACAPCGSALSACPICRQPIRDRIQIF (MIB2 RING domain (UniProt Q96AX9))	0
YPEEVDDDLICHICLQALLDPLDTPCGHTYCTLCLTNFLVEKDFCPMDRKPLVLQHCKK (LNX1 RING domain (UniProt Q8TBB1))	0
B2 (DEF8 RING domain)	0
MNDVLENELQCIICSEYFIEAVTLNCAHSFCSYCINEWMKRKIECPICRKDIKSKTYSL (RNF8 RING domain (UniProt O76064))	0

Sample 4 — technique: RNA Bind-n-Seq; molecule type: RNA; medium: in vitro; concentration: 365 nM; reference: no-protein control; direction: higher = stronger binding
Target: RNA binding protein fox-1 homolog 2, RRM domain, GST-SBP tag (RBFOX2, Homo sapiens, UniProt O43251-10, residues 100-194)
Notes: natural RNA segment, single round, ends assumed
All sequences stand within: GGGAGUUCUACAGUCCGACGAUC … UGGAAUUCUCGGGUGCCAA
Target sequence (chain): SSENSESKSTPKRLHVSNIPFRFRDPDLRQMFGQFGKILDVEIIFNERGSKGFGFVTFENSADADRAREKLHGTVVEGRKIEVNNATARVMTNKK
Sequence	RBNS enrichment (R)
ACGUGACUCAGCAGUGCCCGCCGCCGUCACCAGCUAUGCAUUCACUCCGUUUCCAGUGAGCAGAUGUCUUGCUUGGAAAGUGGACCUGUGUCUGUGUCUGUCCUGAGAAC	0.213
AUCCAGCAGACAUCAAAGCAAAACUAAAAGGUAGAUAUCUGGAAUGAAUGUAUAUGUUGUAAUUGAGGCAGAUAUUUGCCUUAAUUGGAAGGAUCUAACUGCUUUACAAA	0.64
AAGCUAACCGCUGGCCCCGAAUCACGCAGCCCGUCCUUAAACGGCCUCGCCAUGUGCAUUGCCACCUCUGUUGUCCAGACGGGCACAUGCAGCACGCUGUGGUGACAGCC	0.442
UUUUUUGAGACAGGAUCUCACUCUGUUGCCAGGGCUGUAGUGCAGUGGUGUGAUCAUAGCUCACUGCAACCUCCACCUCCCAGGCUCAAGCCUCCCGAAUAGCUGGGACU	0.295
AUCUUGUUGCCACAUGUGCAGCAAACAAAGUGGAAGUAUAGAUCUUCUUCUCCCUUAGGGAGGCUCUUGAAGGAGCAGGAGGUACAGUACUGGGUAGCAGUCUGGCCCUC	0.205
UUCUUCCUCUGGGCAAAGAAGGGCUUCCAGUGGCCUUUCCUCACUCUGUAGUGUUUGUGGGGAUAGGUUCCAUGCAAGAACACCUUCCUCCUCCAUCCCCCACUUCACCC	0.542
UCCCUUGGAGGCUCAGAGCAGCUGGCCCAAGCUGCAGCUCGUCUCCAGUGGAGGCUUGAAUGCCCUCAGAAACGACCCUGGCCAAUGUCACCGCAGAGCCGAGGCGGUGU	0.573
GGCAAGAACACCUCGGAGCCACUGCAUUGUUUUGCCAAAAACUUACUGCAGAUUAAGUAAAGAACUUAGAUGCUAAAUUACAUCUAAUUUUGUAUGUUUUUUUAAAUGUG	0.469

For quick reference, copied from above (sample 2):
Change	normalised enrichment score
TSVRRALFTGDSD [G11D]	6.61
TSVRMALFTGGSD [R5M]	0.312
TSVRRALNTGGSD [F8N]	0.421
TEVRRALFTGGSD [S2E]	3.91
